Assay results gathered from unrelated publications.
Numbered parts are unrelated; each lists some results of a single study.
UniProt Q8IWQ3, sequence (whole entry, looked up): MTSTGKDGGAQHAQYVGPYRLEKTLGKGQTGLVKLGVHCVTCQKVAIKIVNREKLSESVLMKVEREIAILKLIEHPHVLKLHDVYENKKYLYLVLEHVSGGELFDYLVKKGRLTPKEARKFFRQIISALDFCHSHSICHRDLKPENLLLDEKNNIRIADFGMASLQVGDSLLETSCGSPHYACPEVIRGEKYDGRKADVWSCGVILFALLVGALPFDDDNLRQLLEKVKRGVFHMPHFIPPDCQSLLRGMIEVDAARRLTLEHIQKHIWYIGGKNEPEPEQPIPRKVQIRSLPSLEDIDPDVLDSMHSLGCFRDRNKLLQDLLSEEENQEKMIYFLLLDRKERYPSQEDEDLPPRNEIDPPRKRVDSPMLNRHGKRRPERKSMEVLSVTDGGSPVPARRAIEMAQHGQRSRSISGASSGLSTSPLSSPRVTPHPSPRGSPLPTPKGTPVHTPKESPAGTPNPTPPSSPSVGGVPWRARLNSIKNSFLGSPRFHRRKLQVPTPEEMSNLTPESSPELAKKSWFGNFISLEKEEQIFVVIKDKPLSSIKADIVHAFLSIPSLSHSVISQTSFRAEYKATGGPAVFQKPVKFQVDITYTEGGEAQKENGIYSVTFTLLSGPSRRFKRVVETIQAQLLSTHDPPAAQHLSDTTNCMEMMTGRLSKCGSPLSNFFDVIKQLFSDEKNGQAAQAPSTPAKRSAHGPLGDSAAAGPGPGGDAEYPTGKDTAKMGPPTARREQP
UniProt P10721, sequence (whole entry, unmodified, looked up): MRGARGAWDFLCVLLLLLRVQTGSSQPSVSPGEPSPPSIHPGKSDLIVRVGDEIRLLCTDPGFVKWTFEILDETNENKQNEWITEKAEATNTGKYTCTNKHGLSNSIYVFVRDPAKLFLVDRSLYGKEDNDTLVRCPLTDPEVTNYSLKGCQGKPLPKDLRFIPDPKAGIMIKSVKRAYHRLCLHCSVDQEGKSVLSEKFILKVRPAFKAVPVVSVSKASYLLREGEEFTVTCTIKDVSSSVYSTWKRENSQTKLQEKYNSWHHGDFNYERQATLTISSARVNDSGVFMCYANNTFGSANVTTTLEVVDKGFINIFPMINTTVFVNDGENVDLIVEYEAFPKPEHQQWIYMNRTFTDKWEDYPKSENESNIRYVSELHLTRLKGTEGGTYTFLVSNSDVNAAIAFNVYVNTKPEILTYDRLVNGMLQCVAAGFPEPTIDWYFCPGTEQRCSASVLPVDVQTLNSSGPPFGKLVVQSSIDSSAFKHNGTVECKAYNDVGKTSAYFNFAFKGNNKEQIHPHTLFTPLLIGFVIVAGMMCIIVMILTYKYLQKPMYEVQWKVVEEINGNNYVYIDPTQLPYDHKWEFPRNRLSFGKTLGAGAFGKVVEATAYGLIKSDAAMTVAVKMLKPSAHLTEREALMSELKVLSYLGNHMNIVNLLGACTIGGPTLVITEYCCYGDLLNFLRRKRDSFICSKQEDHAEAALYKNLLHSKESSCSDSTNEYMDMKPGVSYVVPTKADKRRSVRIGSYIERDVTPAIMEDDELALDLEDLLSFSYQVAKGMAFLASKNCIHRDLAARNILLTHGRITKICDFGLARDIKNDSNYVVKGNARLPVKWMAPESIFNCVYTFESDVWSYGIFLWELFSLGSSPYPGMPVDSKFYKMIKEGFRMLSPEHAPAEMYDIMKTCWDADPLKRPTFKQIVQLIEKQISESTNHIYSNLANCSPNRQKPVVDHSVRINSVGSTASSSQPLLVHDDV
UniProt P00519, sequence (whole entry, unmodified, looked up): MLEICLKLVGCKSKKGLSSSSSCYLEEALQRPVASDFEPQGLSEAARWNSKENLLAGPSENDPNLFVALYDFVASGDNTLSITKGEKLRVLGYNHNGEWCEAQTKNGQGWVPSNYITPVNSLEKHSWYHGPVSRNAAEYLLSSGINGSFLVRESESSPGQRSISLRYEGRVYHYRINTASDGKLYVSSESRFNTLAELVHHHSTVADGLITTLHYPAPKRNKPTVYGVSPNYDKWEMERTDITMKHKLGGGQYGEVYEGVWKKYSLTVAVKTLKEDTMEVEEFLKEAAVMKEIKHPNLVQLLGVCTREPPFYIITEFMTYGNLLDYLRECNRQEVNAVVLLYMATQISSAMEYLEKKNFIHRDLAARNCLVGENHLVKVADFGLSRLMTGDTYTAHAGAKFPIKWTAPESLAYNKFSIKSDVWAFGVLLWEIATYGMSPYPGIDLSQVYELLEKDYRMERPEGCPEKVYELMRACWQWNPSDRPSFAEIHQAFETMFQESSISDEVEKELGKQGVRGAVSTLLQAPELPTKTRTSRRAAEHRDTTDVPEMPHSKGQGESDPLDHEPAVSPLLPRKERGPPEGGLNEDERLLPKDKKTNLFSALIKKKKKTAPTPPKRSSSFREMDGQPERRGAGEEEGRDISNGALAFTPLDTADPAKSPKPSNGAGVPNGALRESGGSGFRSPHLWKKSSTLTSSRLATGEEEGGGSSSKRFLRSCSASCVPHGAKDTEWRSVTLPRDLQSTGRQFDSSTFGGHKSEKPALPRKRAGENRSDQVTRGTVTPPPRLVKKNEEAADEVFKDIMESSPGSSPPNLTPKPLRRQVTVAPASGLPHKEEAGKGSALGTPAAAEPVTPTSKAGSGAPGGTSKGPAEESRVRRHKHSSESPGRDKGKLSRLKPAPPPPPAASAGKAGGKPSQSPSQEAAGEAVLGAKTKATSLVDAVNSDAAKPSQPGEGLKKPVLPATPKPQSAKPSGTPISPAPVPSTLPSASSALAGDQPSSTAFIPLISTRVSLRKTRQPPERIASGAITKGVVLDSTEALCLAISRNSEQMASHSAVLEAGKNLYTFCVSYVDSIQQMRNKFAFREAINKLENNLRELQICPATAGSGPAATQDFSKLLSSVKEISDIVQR
UniProt Q7L7X3, sequence (whole entry, looked up): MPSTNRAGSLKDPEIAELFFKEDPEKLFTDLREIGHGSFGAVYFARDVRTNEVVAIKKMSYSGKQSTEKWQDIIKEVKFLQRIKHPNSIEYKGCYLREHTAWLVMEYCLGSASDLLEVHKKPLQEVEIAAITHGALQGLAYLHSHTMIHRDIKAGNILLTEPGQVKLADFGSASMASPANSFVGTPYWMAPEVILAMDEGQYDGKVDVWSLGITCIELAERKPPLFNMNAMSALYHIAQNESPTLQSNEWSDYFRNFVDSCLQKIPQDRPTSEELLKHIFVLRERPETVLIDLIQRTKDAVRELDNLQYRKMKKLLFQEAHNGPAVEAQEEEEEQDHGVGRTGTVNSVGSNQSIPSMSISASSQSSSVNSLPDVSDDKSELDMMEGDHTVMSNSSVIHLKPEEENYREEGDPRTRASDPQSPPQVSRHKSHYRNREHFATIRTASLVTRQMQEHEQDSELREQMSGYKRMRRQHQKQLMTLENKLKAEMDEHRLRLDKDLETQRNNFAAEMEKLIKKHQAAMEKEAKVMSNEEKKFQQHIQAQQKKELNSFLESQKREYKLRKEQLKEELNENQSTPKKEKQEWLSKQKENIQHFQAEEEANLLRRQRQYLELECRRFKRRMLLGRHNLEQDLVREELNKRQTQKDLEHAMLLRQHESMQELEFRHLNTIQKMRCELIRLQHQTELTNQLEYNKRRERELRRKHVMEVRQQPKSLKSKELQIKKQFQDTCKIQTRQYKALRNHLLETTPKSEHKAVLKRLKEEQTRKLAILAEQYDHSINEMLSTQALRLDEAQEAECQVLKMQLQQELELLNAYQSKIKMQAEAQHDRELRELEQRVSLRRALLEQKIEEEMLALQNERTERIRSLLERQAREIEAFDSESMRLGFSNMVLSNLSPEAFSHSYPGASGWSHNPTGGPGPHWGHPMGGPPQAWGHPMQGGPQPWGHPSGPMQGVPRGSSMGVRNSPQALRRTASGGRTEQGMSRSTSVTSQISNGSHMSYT
UniProt Q96PY6, sequence (whole entry, looked up): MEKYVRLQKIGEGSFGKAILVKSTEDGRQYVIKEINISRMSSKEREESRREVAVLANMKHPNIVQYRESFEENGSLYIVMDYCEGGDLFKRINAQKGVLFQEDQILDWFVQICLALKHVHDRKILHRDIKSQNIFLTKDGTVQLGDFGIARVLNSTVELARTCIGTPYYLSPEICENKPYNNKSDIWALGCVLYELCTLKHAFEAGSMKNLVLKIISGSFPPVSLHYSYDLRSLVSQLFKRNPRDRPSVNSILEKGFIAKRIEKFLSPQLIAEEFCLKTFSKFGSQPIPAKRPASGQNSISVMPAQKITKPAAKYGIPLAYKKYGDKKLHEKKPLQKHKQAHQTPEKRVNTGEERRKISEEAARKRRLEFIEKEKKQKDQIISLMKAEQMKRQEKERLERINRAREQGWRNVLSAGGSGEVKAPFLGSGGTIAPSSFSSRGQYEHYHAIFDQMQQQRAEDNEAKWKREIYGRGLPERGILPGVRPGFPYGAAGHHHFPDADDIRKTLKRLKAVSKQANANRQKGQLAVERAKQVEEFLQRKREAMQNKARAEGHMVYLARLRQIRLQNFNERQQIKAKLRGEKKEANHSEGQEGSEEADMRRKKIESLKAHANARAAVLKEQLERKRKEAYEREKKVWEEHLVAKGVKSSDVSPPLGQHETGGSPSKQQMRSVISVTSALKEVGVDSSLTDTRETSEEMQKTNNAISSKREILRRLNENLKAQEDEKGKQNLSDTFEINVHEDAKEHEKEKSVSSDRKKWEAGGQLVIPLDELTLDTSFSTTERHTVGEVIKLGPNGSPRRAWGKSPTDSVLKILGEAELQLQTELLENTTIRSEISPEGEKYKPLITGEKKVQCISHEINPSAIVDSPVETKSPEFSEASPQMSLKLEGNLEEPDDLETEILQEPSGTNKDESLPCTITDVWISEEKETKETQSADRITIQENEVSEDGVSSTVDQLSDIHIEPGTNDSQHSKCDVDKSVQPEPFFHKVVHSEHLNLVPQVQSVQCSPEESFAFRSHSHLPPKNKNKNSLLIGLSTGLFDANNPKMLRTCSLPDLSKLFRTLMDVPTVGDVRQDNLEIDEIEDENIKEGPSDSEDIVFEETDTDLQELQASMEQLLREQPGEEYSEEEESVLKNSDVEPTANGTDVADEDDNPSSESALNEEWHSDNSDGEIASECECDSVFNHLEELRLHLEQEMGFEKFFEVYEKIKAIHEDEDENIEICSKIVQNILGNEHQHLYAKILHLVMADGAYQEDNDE

Series 1
SMILES: C=CC(=O)N1CCC([C@@H]2CCNc3c(C(N)=O)c(-c4ccc(Oc5ccccc5)cc4)nn32)CC1
Concentration: 1 µM
Endpoint: inhibition
target = BLK (Homo sapiens, UniProt P51451); observed = enzyme activity; action = inhibitor; result = 99%
target = DCLK2 (Homo sapiens, UniProt Q8N568); observed = enzyme activity; action = inhibitor; result = 26%
target = GRK3 (Homo sapiens, UniProt P35626); observed = enzyme activity; action = inhibitor; result = 0%
target = NTRK2 (Homo sapiens, UniProt Q16620); observed = cell-free assay; result = 0%
target = KIT (Homo sapiens, UniProt P10721, D816V); observed = enzyme activity; action = inhibitor; result = 12%
target = HUNK (Homo sapiens, UniProt P57058); observed = enzyme activity; action = inhibitor; result = 0%
target = MAP2K7 (Homo sapiens, UniProt O14733); observed = enzyme activity; action = inhibitor; result = 36%
target = RIOK3 (Homo sapiens, UniProt O14730); observed = enzyme activity; action = inhibitor; result = 34%
target = PRKCD (Homo sapiens, UniProt Q05655); observed = enzyme activity; action = inhibitor; result = 8%
target = PIK3CA (Homo sapiens, UniProt P42336, M1043I); observed = enzyme activity; action = inhibitor; result = 0%
target = MARK3 (Homo sapiens, UniProt P27448); observed = enzyme activity; action = inhibitor; result = 0%
target = KIT (Homo sapiens, UniProt P10721, T670I/V559D); observed = enzyme activity; action = inhibitor; result = 7%
target = SIK1 (Homo sapiens, UniProt P57059); observed = enzyme activity; action = inhibitor; result = 0%

Series 2
SMILES: C[C@@H]1CN(c2cc(-c3n[nH]c4ccc(OC5(C)CC5)cc34)ncn2)C[C@H](C)O1
Observed: cell-free assay
Method: competition with immobilised ligand
Concentration: 0.1 µM
Endpoint: remaining binding
target = MAPK7 (Homo sapiens, UniProt Q13164); result = 92%
target = PIK3C2G (Homo sapiens, UniProt O75747); result = 69%
target = EPHA5 (Homo sapiens, UniProt P54756); result = 95%
target = BRSK2 (Homo sapiens, UniProt Q8IWQ3); result = 100%
target = ACVR1 (Homo sapiens, UniProt Q04771); result = 90%
target = Ribosomal protein S6 kinase alpha-6, C-terminal kinase domain (RPS6KA6, Homo sapiens, UniProt Q9UK32); result = 85%
target = TAOK1 (Homo sapiens, UniProt Q7L7X3); result = 86%
target = KIT (Homo sapiens, UniProt P10721, V559D/V654A); result = 100%
target = NUAK2 (Homo sapiens, UniProt Q9H093); result = 79%
target = DAPK3 (Homo sapiens, UniProt O43293); result = 96%
target = HCK (Homo sapiens, UniProt P08631); result = 84%
target = EPHA1 (Homo sapiens, UniProt P21709); result = 76%
target = SRPK1 (Homo sapiens, UniProt Q96SB4); result = 100%
target = LATS2 (Homo sapiens, UniProt Q9NRM7); result = 68%
target = MAP3K19 (Homo sapiens, UniProt Q56UN5); result = 84%
target = PIP4K2B (Homo sapiens, UniProt P78356); result = 81%
target = CHEK1 (Homo sapiens, UniProt O14757); result = 90%
target = CDC42BPB (Homo sapiens, UniProt Q9Y5S2); result = 93%
target = CSNK2A2 (Homo sapiens, UniProt P19784); result = 100%

Series 3
SMILES: Cc1ccc(NC(=O)c2ccnc(C(F)(F)F)c2)cc1-c1cc(OCCO)nc(N2CCOCC2)c1
Concentration: 1 µM
Endpoint: remaining binding
target = RET (Homo sapiens, UniProt P07949); observed = binding; method = competition with immobilised ligand; result = 92%
target = ABL1 (Homo sapiens, UniProt P00519, H396P); observed = binding; result = 100%
target = PDPK1 (Homo sapiens, UniProt O15530); observed = binding; result = 100%
target = TAOK1 (Homo sapiens, UniProt Q7L7X3); observed = binding; method = competition with immobilised ligand; result = 95%
target = DCLK3 (Homo sapiens, UniProt Q9C098); observed = binding; method = competition with immobilised ligand; result = 100%
target = ABL1 (Homo sapiens, UniProt P00519, F317L); result = 100%
target = STK24 (Homo sapiens, UniProt Q9Y6E0); observed = binding; result = 100%
target = PTK6 (Homo sapiens, UniProt Q13882); observed = binding; method = competition with immobilised ligand; result = 99%
target = PRKACB (Homo sapiens, UniProt P22694); observed = binding; method = competition with immobilised ligand; result = 100%
target = NEK1 (Homo sapiens, UniProt Q96PY6); observed = binding; result = 100%
target = PAK1 (Homo sapiens, UniProt Q13153); observed = binding; result = 85%
target = CDKL3 (Homo sapiens, UniProt Q8IVW4); observed = binding; method = competition with immobilised ligand; result = 93%
target = SNRK (Homo sapiens, UniProt Q9NRH2); observed = binding; result = 100%
target = DAPK1 (Homo sapiens, UniProt P53355); observed = binding; result = 74%
target = ROS1 (Homo sapiens, UniProt P08922); observed = binding; result = 77%
target = SRMS (Homo sapiens, UniProt Q9H3Y6); observed = binding; method = competition with immobilised ligand; result = 92%
target = CDKL5 (Homo sapiens, UniProt O76039); observed = binding; result = 100%
target = Aurora kinase A (AURKA, Homo sapiens, UniProt O14965); observed = binding; method = competition with immobilised ligand; result = 98%

Series 4
Target: Serine/threonine-protein kinase BRSK2 (BRSK2, Homo sapiens, UniProt Q8IWQ3)
Observed: enzyme activity
Action: inhibitor
Concentration: 0.5 µM
Relative to: control
Endpoint: remaining activity
Compound = O=C(c1ccccc1)c1ccc(N2CCOCC2)cc1O; result = 95.5%
Compound = O=c1c(-c2ccc(F)cc2)c(-c2ccncc2)[nH]n1-c1ccc(Cl)cc1; result = 90.8%
Compound = c1cc(-c2cnn3cc(-c4ccc(OCCN5CCCCC5)cc4)cnc23)ccn1; result = 67.9%
Compound = NC(=O)c1ccc(-c2nc(-c3ccc4c(c3)OCCO4)c(-c3ccccn3)[nH]2)cc1; result = 98.8%
Compound = O=C1NC(=O)/C(=C/c2ccc3c(c2)OC(F)(F)O3)S1; result = 90.9%
Compound = C[C@@H](N)[C@H]1CC[C@H](C(=O)Nc2ccncc2)CC1; result = 92.7%
Compound = COc1cc2c(Nc3ccc(Br)cc3F)ncnc2cc1OCC1CCN(C)CC1; result = 104%
Compound = FC(F)(F)c1ccc(/C=C/c2nc(COc3ccc(CCCCn4ccnn4)cc3)co2)cc1; result = 99.6%
Compound = N#CC(c1ccnc(NCCc2cccnc2)n1)c1nc2ccccc2s1 (stereo not shown); result = 88.1%
Compound = Clc1ccc(Nc2nnc(Cc3ccncc3)c3ccccc23)cc1; result = 97.1%
Compound = O=Nc1c(-c2c(O)[nH]c3ccccc23)[nH]c2ccccc12; result = 28%
Compound = Nc1nc(Nc2ccc(S(N)(=O)=O)cc2)nn1C(=S)Nc1c(F)cccc1F; result = 9.03%
Compound = CCN(CC)CCCCN1c2ccccc2Oc2ccc(Cl)cc21; result = 107%
Compound = COc1cc2c(N3CCN(C(=O)Nc4ccc(OC(C)C)cc4)CC3)ncnc2cc1OCCCN1CCCCC1; result = 98.6%
Compound = NC(=O)c1cccc(-c2cc(Nc3ccc(OC(F)(F)F)cc3)ncn2)c1; result = 93%
Compound = N#C/C(=C(/N)SC1C=CC=CC1)c1cccc(C(O)c2ccncc2)c1 (stereo not shown); result = 101%
Compound = CNc1cc2c(Nc3cccc(Br)c3)ncnc2cn1; result = 90.9%
Compound = CC(C)n1cnc2c(Nc3cccc(Cl)c3)nc(NCCO)nc21; result = 95%
Compound = O=C(O)/C=C/c1cc(Br)c(Br)c(Br)c1Br; result = 91.1%
Compound = O=C1c2ccccc2-c2nc3nnnn3nc21; result = 66.7%
Compound = CC(C)N(CCC(=O)c1ccc2ccccc2c1)Cc1ccccc1; result = 103%
Compound = CC(C)(C)c1nc2c3cc[nH]c(=O)c3c3cc(F)ccc3c2[nH]1; result = 21.4%
Compound = CCCCc1c(-c2ccc(O)cc2)[nH]c2nccnc12; result = 87.2%

A few entries again (series 4):
Compound = O=Nc1c(-c2c(O)[nH]c3ccccc23)[nH]c2ccccc12; result = 28%
Compound = Nc1nc(Nc2ccc(S(N)(=O)=O)cc2)nn1C(=S)Nc1c(F)cccc1F; result = 9.03%
Compound = CCN(CC)CCCCN1c2ccccc2Oc2ccc(Cl)cc21; result = 107%
Compound = COc1cc2c(N3CCN(C(=O)Nc4ccc(OC(C)C)cc4)CC3)ncnc2cc1OCCCN1CCCCC1; result = 98.6%
Compound = NC(=O)c1cccc(-c2cc(Nc3ccc(OC(F)(F)F)cc3)ncn2)c1; result = 93%
Compound = N#C/C(=C(/N)SC1C=CC=CC1)c1cccc(C(O)c2ccncc2)c1 (stereo not shown); result = 101%
Compound = CNc1cc2c(Nc3cccc(Br)c3)ncnc2cn1; result = 90.9%
Compound = CC(C)n1cnc2c(Nc3cccc(Cl)c3)nc(NCCO)nc21; result = 95%
Compound = O=C(O)/C=C/c1cc(Br)c(Br)c(Br)c1Br; result = 91.1%
Compound = O=C1c2ccccc2-c2nc3nnnn3nc21; result = 66.7%
Compound = CC(C)N(CCC(=O)c1ccc2ccccc2c1)Cc1ccccc1; result = 103%
Compound = CC(C)(C)c1nc2c3cc[nH]c(=O)c3c3cc(F)ccc3c2[nH]1; result = 21.4%
